Assay results from different studies.
Lines come from different studies, so protocols differ. Values joined by “and” are separate records of one study, mostly repeats; a detail may differ. ± gives the spread as reported.
Chain of UniProt Q9UNQ0 (whole entry, looked up): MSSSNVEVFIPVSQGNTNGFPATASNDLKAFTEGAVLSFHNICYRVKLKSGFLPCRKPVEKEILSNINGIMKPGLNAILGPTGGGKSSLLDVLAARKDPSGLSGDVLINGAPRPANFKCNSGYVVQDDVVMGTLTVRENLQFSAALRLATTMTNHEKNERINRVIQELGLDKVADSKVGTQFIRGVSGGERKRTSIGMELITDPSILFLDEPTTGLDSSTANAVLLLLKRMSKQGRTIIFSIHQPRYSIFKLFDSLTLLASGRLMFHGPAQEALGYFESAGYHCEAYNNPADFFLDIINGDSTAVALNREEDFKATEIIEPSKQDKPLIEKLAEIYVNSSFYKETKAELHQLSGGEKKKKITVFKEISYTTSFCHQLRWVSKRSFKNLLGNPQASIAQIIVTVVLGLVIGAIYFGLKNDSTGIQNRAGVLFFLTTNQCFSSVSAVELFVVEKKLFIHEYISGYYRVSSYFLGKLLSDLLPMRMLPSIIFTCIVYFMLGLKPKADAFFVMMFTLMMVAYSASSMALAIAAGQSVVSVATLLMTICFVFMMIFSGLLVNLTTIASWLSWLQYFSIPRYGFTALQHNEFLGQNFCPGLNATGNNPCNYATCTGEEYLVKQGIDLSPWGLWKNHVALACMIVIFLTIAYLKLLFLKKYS

The relative abundance of COc1ccccc1-c1n[nH]c2nc(NC3CCN(C(=O)Cc4ccc(F)cc4F)CC3)ncc12 is reported as 1.41 (bead binding, competition bead pull-down, refers to: LINJ.29.0890; Leishmania donovani axenic amastigote extract; 10 µM; reference: vehicle).
For CC(C)(C)C(=O)OCOP(=O)(OCOC(=O)C(C)(C)C)C1CCCN(O)C1=O (stereo not drawn), the log GI50 was -6.17 log M (HCT-15).
With O=C1CC[C@@]2(O)[C@H]3Cc4ccc(O)c5c4[C@@]2(CCN3CC2CCC2)[C@H]1O5 the Papp was 33 ×10⁻⁶ cm/s (PAMPA-BBB; porcine brain lipid; 500 µM, 4 h, pH 7.4, 1% DMSO).
CC1(F)CN(C(=O)Cn2c(=O)c(C(=O)NCc3ccc(Cl)cc3)cc3nc(N4CCN(CCN)C4=O)cnc32)C1 gave a selectivity index of 92.6 (Epstein-Barr virus; qPCR; retest 1; reference: CC50 over EC50).
The viability of Cc1ccc(N2CCC(N(C)C)CC2)cc1C(=O)N[C@H](C)c1cc(-c2cnn(C)c2)nc2ccccc12 is reported as 91.8% and 89.7% and 87.3% (Vero E6; 7.812 µM).
The relative abundance of COc1ccccc1-c1n[nH]c2nc(N[C@H]3CC[C@H](NS(=O)(=O)CC(C)C)CC3)ncc12 is reported as 0.88 (bead binding, competition bead pull-down, refers to: LINJ.05.0090; Leishmania donovani extract; 10 µM; reference: vehicle).
C[C@@H](N1CN([C@H]2c3ccccc3CSc3ccccc32)n2cc(C(=O)O)c(=O)c(O)c2C1=O)C(F)(F)F has a CC50 of over 10 µM (bovine cells).
For Cc1nc2cccc(OCC(C)(C)C(=O)NC(C)C)c2c(N)c1C(=O)[O-].[Na+], “revertant colonies per plate” read 133 ± 9 (Salmonella typhimurium; TA100; 0.32 mg per plate, without S9, preincubation).
CCn1ccc(-c2cc(C(C)NC(=O)c3cc(N4CC5CC4CN5C)ccc3C)c3ccccc3n2)n1 (stereo not drawn) gave a viability of 26.7% and 29.2% and 25.7% (Vero E6; 31.25 µM).
For O=C1NC2(CC2)COc2ncc(F)cc2[C@H]2COCCN2c2ccn3ncc1c3n2, “aspartate aminotransferase activity” read 75.9 ± 13.9 U/L (Sprague-Dawley rat, female, serum; oral, 10 mg/kg/day, 4 weeks daily, end of recovery period).
For CC[C@H](C)[C@H](NC(=O)[C@H](CO)NC(=O)[C@H](Cc1ccc(O)cc1)NC(=O)[C@H](Cc1ccc(O)cc1)NC(=O)[C@H](CC(N)=O)NC(=O)CNC(=O)[C@H](CO)NC(=O)[C@H](Cc1ccc(O)cc1)NC(=O)[C@H](CO)NC(=O)[C@H](CO)NC(=O)[C@H](CC(N)=O)NC(=O)COCCOCCNC(=O)CN1CCN(CC(=O)O)CCN(CC(=O)O)CCN(CC(=O)O)CC1)C(=O)N[C@@H](CC(C)C)C(N)=O [copper-64 labelled], the mean uptake was 0 %IA/cc (dynamic PET; tamoxifen-induced PDAC mouse model, tumor; 0 min, 49 days after tamoxifen).
With CN1CC[C@]23c4c5ccc(O)c4O[C@H]2[C@H](O)CC[C@@]3(O)[C@H]1C5 the Papp was 2.62 ×10⁻⁶ cm/s (PAMPA-BBB; porcine brain lipid; 500 µM, 4 h, pH 7.4, 1% DMSO).
Cc1ccc(N2CCN(C)C3(CC3)C2)cc1C(=O)N[C@H](C)c1cc(-c2cnn(C)c2)nc2ccccc12 has a viability of 11.5% and 14% and 10.2% (Vero E6; 125 µM).
Cc1cc(-c2ccc3ccccc3c2)nnc1NCCN1CCN(C)CC1 — result for inhibition: “negative” (Broad substrate specificity ATP-binding cassette transporter ABCG2 (ABCG2, Homo sapiens, UniProt Q9UNQ0); transport; concentration not given).
The survival of Cc1cc(C(=O)Nc2nc3cccc(C)c3n2[C@H]2CCCCN(C(=O)/C=C/CN(C)C)C2)ccn1 is reported as 33.3% (Trypanosoma brucei; STIB795, mouse acute HAT model; oral, 7.5 mg/kg once daily for 4 days, day 10; reference: mice).

Repeated from above:
Cc1cc(-c2ccc3ccccc3c2)nnc1NCCN1CCN(C)CC1 — result for inhibition: “negative” (Broad substrate specificity ATP-binding cassette transporter ABCG2 (ABCG2, Homo sapiens, UniProt Q9UNQ0); transport; concentration not given).
